Measured values gathered from unrelated publications.
Compare with care: the assays were run in different laboratories. ± marks the error that the study gave.
VHL with Elongin B/C: von Hippel-Lindau disease tumor suppressor, with Elongin B/C (VHL, Homo sapiens, UniProt P40337)
LGALS3: Galectin-3 (LGALS3, Homo sapiens, UniProt P17931)
Chain of UniProt P17931 (whole entry, unmodified, looked up): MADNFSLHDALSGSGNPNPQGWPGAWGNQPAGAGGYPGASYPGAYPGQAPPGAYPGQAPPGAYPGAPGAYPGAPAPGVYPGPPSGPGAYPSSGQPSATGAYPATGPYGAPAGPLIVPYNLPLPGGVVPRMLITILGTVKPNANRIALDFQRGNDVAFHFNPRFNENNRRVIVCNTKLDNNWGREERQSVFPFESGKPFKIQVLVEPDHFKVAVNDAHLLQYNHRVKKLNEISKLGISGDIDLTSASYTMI
SOST: Sclerostin (SOST, Homo sapiens, UniProt Q9BQB4)
Chain of UniProt Q9BQB4 (whole entry, looked up): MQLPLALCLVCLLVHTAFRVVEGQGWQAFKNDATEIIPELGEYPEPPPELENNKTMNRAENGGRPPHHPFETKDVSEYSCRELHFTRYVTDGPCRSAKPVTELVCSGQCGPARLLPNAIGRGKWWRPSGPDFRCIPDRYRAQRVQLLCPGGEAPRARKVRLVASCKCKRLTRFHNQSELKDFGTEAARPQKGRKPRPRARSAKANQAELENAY
BCL2L1: Bcl-2-like protein 1 (BCL2L1, Homo sapiens, UniProt Q07817)
Chain of UniProt P27694 (whole entry, looked up): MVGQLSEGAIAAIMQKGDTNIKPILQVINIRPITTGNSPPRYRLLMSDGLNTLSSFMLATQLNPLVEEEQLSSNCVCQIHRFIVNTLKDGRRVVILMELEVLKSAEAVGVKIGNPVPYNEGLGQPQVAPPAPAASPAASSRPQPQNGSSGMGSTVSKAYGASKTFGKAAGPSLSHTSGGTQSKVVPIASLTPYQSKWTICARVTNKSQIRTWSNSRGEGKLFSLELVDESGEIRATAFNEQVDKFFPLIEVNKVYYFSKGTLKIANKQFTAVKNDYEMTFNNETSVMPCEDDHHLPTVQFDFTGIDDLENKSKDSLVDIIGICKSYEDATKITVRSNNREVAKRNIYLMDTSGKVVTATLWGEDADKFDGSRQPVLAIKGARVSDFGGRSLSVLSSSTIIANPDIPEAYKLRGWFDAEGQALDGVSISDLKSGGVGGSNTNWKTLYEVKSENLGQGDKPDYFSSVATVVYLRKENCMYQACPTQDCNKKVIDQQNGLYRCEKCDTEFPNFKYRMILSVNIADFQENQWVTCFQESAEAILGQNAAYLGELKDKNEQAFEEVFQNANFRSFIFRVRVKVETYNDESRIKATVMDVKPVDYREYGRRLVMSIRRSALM
Chain of UniProt Q07817 (whole entry, looked up): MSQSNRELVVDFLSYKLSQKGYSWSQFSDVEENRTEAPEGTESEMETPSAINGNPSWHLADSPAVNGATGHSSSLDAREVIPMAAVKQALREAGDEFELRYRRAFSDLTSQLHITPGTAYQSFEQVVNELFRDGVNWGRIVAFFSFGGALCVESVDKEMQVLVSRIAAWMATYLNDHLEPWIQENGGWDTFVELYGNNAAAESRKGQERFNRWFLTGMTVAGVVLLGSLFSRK
Chain of UniProt Q92915 (whole entry, looked up): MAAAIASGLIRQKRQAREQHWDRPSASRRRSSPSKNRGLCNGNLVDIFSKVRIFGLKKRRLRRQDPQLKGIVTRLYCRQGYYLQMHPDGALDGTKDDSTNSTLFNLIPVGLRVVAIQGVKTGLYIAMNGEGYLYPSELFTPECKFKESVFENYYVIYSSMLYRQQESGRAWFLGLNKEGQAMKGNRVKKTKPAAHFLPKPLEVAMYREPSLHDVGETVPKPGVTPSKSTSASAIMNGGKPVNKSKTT
Chain of UniProt Q9LFP6 (whole entry, looked up): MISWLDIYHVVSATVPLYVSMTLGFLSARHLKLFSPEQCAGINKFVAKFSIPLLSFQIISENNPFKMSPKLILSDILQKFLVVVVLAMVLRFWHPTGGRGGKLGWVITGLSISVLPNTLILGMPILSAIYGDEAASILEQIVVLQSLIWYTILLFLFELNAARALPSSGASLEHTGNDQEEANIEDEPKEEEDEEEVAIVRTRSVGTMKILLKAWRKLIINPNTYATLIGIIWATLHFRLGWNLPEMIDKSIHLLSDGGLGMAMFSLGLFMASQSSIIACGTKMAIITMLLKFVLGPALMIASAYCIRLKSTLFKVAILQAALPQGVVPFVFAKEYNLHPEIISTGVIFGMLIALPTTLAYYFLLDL
Chain of UniProt Q13976 (whole entry, looked up): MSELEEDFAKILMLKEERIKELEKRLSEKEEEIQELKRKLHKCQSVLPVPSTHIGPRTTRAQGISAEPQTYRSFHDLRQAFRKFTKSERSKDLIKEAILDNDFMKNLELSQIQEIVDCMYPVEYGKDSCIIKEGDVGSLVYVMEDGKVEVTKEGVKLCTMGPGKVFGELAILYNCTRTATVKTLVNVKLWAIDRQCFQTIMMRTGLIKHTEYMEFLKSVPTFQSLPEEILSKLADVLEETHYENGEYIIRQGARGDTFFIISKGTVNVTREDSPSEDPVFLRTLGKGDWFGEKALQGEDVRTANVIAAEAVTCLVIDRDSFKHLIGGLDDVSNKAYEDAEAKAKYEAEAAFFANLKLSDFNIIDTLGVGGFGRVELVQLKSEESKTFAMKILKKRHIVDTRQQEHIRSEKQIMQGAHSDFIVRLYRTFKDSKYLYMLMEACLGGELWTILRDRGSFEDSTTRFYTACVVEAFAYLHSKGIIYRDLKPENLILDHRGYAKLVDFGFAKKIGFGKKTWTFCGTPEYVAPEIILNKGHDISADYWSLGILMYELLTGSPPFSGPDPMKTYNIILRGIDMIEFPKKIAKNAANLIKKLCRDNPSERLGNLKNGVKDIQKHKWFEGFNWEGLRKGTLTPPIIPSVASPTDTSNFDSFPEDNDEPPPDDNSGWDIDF
Chain of UniProt Q9NNX6 (whole entry, looked up): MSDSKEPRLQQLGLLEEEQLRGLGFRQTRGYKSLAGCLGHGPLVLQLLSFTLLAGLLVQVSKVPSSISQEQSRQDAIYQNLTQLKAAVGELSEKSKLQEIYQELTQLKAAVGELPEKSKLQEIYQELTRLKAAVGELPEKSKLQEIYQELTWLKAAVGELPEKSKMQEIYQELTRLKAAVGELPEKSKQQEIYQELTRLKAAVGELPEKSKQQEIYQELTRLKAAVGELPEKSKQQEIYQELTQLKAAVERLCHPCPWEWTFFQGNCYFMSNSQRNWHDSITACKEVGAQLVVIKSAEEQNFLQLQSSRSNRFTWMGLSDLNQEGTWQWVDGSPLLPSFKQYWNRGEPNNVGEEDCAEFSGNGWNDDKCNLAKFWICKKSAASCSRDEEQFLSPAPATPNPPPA
Chain of UniProt P56470 (whole entry, looked up): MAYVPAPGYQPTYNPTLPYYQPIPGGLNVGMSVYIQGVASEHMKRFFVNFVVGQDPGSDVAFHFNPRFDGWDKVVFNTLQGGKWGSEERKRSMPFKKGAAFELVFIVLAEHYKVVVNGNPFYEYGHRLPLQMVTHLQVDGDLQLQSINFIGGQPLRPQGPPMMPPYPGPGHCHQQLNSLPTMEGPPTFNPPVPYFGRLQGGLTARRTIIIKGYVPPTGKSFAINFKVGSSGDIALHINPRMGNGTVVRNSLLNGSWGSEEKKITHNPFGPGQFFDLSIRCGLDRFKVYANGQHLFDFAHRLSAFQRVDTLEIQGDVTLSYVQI
Chain of UniProt Q92843 (whole entry, looked up): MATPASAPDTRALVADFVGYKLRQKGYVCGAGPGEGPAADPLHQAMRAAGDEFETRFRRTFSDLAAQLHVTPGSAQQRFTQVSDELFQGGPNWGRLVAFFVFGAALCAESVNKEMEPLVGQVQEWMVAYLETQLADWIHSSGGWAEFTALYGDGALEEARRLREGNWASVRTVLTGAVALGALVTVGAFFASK
Chain of UniProt Q13131 (whole entry, looked up): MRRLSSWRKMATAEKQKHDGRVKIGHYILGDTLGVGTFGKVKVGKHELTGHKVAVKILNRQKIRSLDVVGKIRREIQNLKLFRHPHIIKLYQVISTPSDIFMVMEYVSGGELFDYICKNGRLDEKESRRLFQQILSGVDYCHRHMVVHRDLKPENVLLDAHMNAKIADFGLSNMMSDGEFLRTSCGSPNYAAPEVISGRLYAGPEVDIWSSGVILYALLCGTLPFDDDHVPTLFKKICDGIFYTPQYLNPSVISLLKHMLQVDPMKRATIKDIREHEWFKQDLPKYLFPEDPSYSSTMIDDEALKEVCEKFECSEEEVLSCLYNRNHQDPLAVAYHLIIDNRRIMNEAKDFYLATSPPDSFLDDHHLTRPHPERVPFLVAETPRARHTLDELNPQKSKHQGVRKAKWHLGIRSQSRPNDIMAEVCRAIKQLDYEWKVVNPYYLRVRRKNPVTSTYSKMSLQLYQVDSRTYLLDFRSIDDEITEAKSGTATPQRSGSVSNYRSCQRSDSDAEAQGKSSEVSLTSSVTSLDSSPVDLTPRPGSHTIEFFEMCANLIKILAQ
Chain of UniProt Q9ESK4 (whole entry, looked up): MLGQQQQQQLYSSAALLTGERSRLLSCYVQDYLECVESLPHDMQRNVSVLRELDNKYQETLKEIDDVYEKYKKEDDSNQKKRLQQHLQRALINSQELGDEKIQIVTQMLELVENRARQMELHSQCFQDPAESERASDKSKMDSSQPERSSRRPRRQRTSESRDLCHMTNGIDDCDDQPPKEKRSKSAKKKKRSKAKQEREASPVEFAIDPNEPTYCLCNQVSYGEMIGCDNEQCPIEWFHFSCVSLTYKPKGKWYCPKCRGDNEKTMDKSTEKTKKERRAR
Chain of UniProt P98170 (whole entry, looked up): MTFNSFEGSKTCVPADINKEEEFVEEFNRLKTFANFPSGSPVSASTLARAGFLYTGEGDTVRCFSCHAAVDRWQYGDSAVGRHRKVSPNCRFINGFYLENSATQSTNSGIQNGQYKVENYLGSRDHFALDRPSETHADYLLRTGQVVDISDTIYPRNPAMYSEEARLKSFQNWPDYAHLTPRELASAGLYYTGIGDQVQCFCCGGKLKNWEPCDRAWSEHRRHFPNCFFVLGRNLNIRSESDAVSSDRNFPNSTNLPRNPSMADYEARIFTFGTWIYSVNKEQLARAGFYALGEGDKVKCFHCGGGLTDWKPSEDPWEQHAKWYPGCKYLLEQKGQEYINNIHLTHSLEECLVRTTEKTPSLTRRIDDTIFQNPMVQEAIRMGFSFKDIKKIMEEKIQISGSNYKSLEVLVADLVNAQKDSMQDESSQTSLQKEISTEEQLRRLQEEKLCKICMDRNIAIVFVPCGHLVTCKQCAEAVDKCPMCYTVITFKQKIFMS

Structure (SMILES)	target	test	test system	conditions	Kd
Cc1ccc(C(=O)Nc2ccc(S(=O)(=O)O)c3cccc(S(=O)(=O)O)c23)cc1NC(=O)Nc1cc(C(=O)Nc2ccc(S(=O)(=O)O)c3cccc(S(=O)(=O)O)c23)ccc1C	E3 ubiquitin-protein ligase XIAP, BIR1 domain (XIAP, Homo sapiens, UniProt P98170)	microscale thermophoresis	–	24 °C	9 ± 2 µM
CC[C@H](C)[C@H](NC(=O)[C@H](CO)NC(=O)[C@H](CCSC)NC(=O)[C@H](CC(C)C)NC(=O)[C@H](CC(=O)O)NC(=O)[C@H](CC(=O)O)NC(=O)[C@H](C)NC(=O)[C@H](CO)NC(=O)[C@H](Cc1ccccc1)NC(=O)[C@H](C)NC(C)=O)C(=O)N[C@@H](CC(=O)O)C(=O)N[C@@H](CC(C)C)C(=O)N[C@@H](C)C(=O)N[C@@H](CCC(=O)O)C(=O)N[C@@H](CCC(N)=O)C(N)=O	Replication protein A 70 kDa DNA-binding subunit, N-terminal domain (RPA1, Homo sapiens, UniProt P27694)	binding, NMR titration	–	25 °C	100 ± 0.1 µM
Nc1ncnc2c1ncn2[C@@H]1O[C@H](CO)[C@@H](O[C@H]2O[C@H](CO)[C@@H](OP(=O)(O)O)[C@H](OP(=O)(O)O)[C@H]2O)[C@H]1O	Inositol 1,4,5-trisphosphate-gated calcium channel ITPR1, N-terminal region (Itpr1, Rattus norvegicus, UniProt P29994, del318-332/R568Q)	[3H]IP3 competition binding	N-terminal fragment R568Q	Tris-EDTA medium	0.0137 µM
CC(C)C[C@H](NC(=O)[C@H](Cc1ccc(O)cc1)NC(=O)[C@@H](CCCNC(=N)N)NC(=O)[C@@H](CO)NC(=O)[C@H](Cc1ccccc1)NC(=O)[C@H](CC1CCCCC1)NC(=O)[C@H](CC(=O)O)NC(=O)CN1CCCN2CCN(CCCN(CC(=O)O)CC2)CC1)C(=O)N[C@@H](Cc1c[nH]c2ccccc12)C(=O)N[C@@H](CO)C(=O)O (single isomer, unassigned)	Urokinase plasminogen activator surface receptor (Homo sapiens, UniProt Q03405)	binding, surface plasmon resonance	–	–	0.0077 µM
COC(=O)c1ccc(CNC(=O)[C@@H]2C[C@@H](O)CN2C(=O)Cc2ccccc2)cc1	VHL with Elongin B/C	isothermal titration calorimetry	–	25 °C	280 ± 10 µM
CN(C)c1ccc2c(-c3ccc(C(=O)NCCCC[C@@H](NC(=O)[C@@H](CCCNC(=N)N)NC(=O)[C@@H](CCCNC(=N)N)NC(=O)[C@@H](CCCNC(=N)N)NC(=O)[C@@H](CCCNC(=N)N)NC(=O)[C@@H](CCCNC(=N)N)NC(=O)[C@@H](CCCNC(=N)N)NC(=O)CCCCCNC(=O)[C@@H](CCCNC(=N)N)NC(=O)CCCCCNC(=O)c4ccc(-c5ccnc(N)n5)s4)C(N)=O)cc3C(=O)[O-])c3ccc(=[N+](C)C)cc-3oc2c1	cGMP-dependent protein kinase 1, isoform alpha (PRKG1, Homo sapiens, UniProt Q13976)	binding, fluorescence intensity	–	with: cGMP	0.00386 µM
CC(C)C1=CC23CCC4C(C)(C(=O)O)CCCC4(C)C2CC1C(C(=O)O)C3C(=O)O (stereo not shown)	Replication protein A 70 kDa DNA-binding subunit (RPA1, Homo sapiens, UniProt P27694)	binding, fluorescence	–	–	29 µM
O=C(O)CCc1ccc(Cl)cc1Cl	PIN8 (Arabidopsis thaliana, UniProt Q9LFP6)	cell-free assay	–	–	21 µM
O=C(N[C@@H](Cn1cncn1)c1ccc(F)cc1F)c1ccc(-c2nnc(-c3ccccc3)o2)cc1	Sterol 14-alpha demethylase (CYP51, Trypanosoma cruzi, UniProt Q7Z1V1)	binding, absorbance	–	–	0.07 µM
COc1cccc(C(=O)N[C@H]2[C@@H](O)[C@@H](CO)O[C@@H](S[C@@H]3O[C@H](CO)[C@H](O)[C@H](NC(=O)c4cccc(OC)c4)[C@H]3OS(=O)(=O)O)[C@@H]2O)c1	LGALS3	binding, ITC	–	–	0.103 µM
CC(=O)N[C@@H]1[C@@H](O[C@@H]2O[C@H](C(=O)O)[C@@H](O[C@@H]3O[C@H](CO)[C@@H](O)[C@H](O[C@@H]4O[C@H](C(=O)O)[C@@H](O)[C@H](O)[C@H]4O)[C@H]3NC(C)=O)[C@H](O)[C@H]2O)[C@H](O)[C@@H](CO)O[C@H]1N=[N+]=[N-]	SOST	fluorescence polarization competition	–	–	no binding
CCc1nc2cc3ccccc3cc2cc1C(=O)N1CCC[C@H]1C(=O)N[C@@H](CCC/C=C/CCC[C@H](NC(=O)[C@@H]1CCCN1C(=O)c1cc2cc3ccccc3cc2nc1CC)C(=O)N[C@@H](CCCCN)C(=O)NCCCN)C(=O)N[C@@H](CCCCN)C(=O)NCCCN	(CUG)10 RNA	SPR	–	pH 7.4	0.0225 µM
COc1c(F)c(F)c(C(=O)N[C@H]2[C@@H](O)[C@@H](CO)O[C@@H](S[C@@H]3O[C@H](CO)[C@H](O)[C@H](NC(=O)c4c(F)c(F)c(OC)c(F)c4F)[C@H]3OS(=O)(=O)O)[C@@H]2O)c(F)c1F	LGALS3	binding, ITC	–	–	0.261 µM
CC(=O)N[C@@H]1[C@@H](O[C@@H]2O[C@H](C(=O)O)[C@@H](OS(=O)(=O)O)[C@H](OS(=O)(=O)O)[C@H]2OS(=O)(=O)O)[C@H](OS(=O)(=O)O)[C@@H](COS(=O)(=O)O)O[C@H]1N=[N+]=[N-]	SOST	ligand displacement, FP	–	–	266 µM
CC#Cc1cc2c3c(c1)O[C@H](CO)[C@H](O)[C@@H]3OC2	Galectin-4, C-terminal domain (LGALS4, Homo sapiens, UniProt P56470)	binding, competitive fluorescence polarization	–	20 °C	1100 ± 22 µM
Cc1ccc(Oc2nc3cc(-c4ccc5c(ccn5C)c4)c(Cl)cc3[nH]2)cc1C(=O)O	PRKAB2/PRKAA1, gamma1; phosphorylated (Homo sapiens, UniProt O43741+Q13131)	biolayer interferometry	–	AMPK complex α1β2γ1	0.51 µM
NCc1cn([C@@H]2[C@@H](O[C@H]3C[C@H](C(=O)NCc4ccc(CO)cc4)[C@@H](C(=O)NCc4ccc(CO)cc4)C[C@@H]3OCCCl)O[C@H](CO)[C@@H](O)[C@@H]2O)nn1	CD209 antigen (CD209, Homo sapiens, UniProt Q9NNX6)	binding, ITC	–	–	52 µM
CN(C)CCNC(=O)c1cccc2c(NCCCCc3c(N)nc(N)nc3N)c3ccccc3nc12	tRNA	binding, ITC	–	25 °C	2400 ± 2100 µM
O=C(Cc1ccc(Cl)cc1)Nc1ccc(S(=O)(=O)Nc2cnc3ccccc3n2)cc1	Peptidyl-prolyl cis-trans isomerase A (PPIA, Homo sapiens, UniProt P62937)	binding, SPR	–	pH 7.4	1.23 µM
CC(C)C[C@H](NC(=O)[C@H](Cc1ccccc1)NC(=O)OCc1ccccc1)C(=O)N1CCC[C@H]1C(=O)N[C@@H](CCCCNC(=O)OC(C)(C)C)C(N)=O	Fibroblast growth factor 14 (Homo sapiens, UniProt Q92915)	binding, SPR	–	pH 7.4	89.6 µM
COc1c(F)c(F)c(C(=O)N[C@H]2[C@@H](O)[C@@H](CO)O[C@@H](O[C@H]3[C@H](O)[C@@H](NC(C)=O)[C@H](OC)O[C@@H]3CO)[C@@H]2O)c(F)c1F	Galectin-3, carbohydrate recognition domain (LGALS3, Homo sapiens, UniProt P17931)	–	–	–	3.3 ± 0.1 µM
CC[C@H](C)[C@H](NC(=O)[C@H](CCCNC(=N)N)NC(=O)[C@H](CCCCN)NC(=O)[C@H](CC(C)C)NC(=O)[C@H](CCC(=O)O)NC(=O)[C@H](CCC(N)=O)NC(=O)[C@H](C)NC(=O)[C@@H](NC(=O)[C@H](Cc1c[nH]c2ccccc12)NC(=O)[C@@H](NC(=O)[C@H](CCC(=O)O)NC(=O)[C@@H]1CCCN1C(=O)[C@H](CCCNC(=N)N)NC(C)=O)[C@@H](C)CC)C(C)C)C(=O)NCC(=O)N[C@@H](CC(=O)O)C(=O)N[C@@H](CCC(=O)O)C(=O)N[C@@H](Cc1ccccc1)C(=O)N[C@@H](CC(N)=O)C(=O)N[C@@H](C)C(=O)N[C@@H](Cc1ccc(O)cc1)C(=O)N[C@@H](Cc1ccc(O)cc1)C(=O)N[C@@H](C)C(=O)N[C@@H](CCCNC(=N)N)C(=O)N[C@@H](CCCNC(=N)N)C(=O)N[C@H](C(=O)N[C@@H](Cc1ccccc1)C(=O)N[C@@H](CC(C)C)C(=O)N[C@@H](CC(N)=O)C(N)=O)C(C)C	BCL2L1	competitive fluorescence polarization	–	with: fluorescein-labelled peptide 10 nM	0.0001 µM
COc1ccc(/C=C/c2ccc(-c3ccc(C)cn3)nc2)cc1	zinc(II)	binding, fluorescence titration	aqueous HEPES buffer	pH 7.4, metal-buffered solution	0.04 to 2 µM
C[C@H](N)C(=O)N[C@@H](CCCNC(=N)N)C(=O)N[C@H](C(=O)N[C@@H](CCCC[N+](C)(C)C)C(=O)N[C@@H](CCC(N)=O)C(=O)N[C@H](C(=O)N[C@@H](C)C(=O)N[C@@H](CCCNC(=N)N)C(=O)N[C@@H](CCCCN)C(=O)N[C@@H](CO)C(=O)N[C@H](C(=O)NCC(N)=O)[C@@H](C)O)[C@@H](C)O)[C@@H](C)O	Inhibitor of growth protein 2, PHD finger (Ing2, Mus musculus, UniProt Q9ESK4)	binding, isothermal titration calorimetry	–	pH 7.2	0.98 µM
CC[C@H](C)[C@H](NC(=O)[C@H](CCC(=O)O)NC(=O)[C@H](CCCNC(=N)N)NC(=O)[C@H](C)NC(=O)[C@H](Cc1c[nH]c2ccccc12)NC(=O)[C@H](CCC(N)=O)NC(=O)[C@H](CCC(=O)O)NC(=O)[C@H](CCC(=O)O)NC(C)=O)C(=O)NCC(=O)N[C@@H](C)C(=O)N[C@@H](CCC(N)=O)C(=O)N[C@@H](CC(C)C)C(=O)N[C@@H](CC(=O)O)C(=O)N[C@@H](CCCNC(=N)N)C(=O)N[C@@H](CCSC)C(=O)N[C@@H](C)C(=O)N[C@@H](CC(=O)O)C(=O)N[C@@H](CC(=O)O)C(=O)N[C@@H](CC(C)C)C(=O)N[C@@H](CC(N)=O)C(=O)N[C@@H](C)C(=O)N[C@@H](CCC(N)=O)C(=O)N[C@@H](Cc1ccc(O)cc1)C(=O)N[C@@H](CCC(=O)O)C(=O)N[C@@H](CCCNC(=N)N)C(=O)N[C@@H](CCCNC(=N)N)C(=O)N[C@@H](CCCNC(=N)N)C(=O)N[C@@H](CCC(N)=O)C(N)=O	BCL2L1	binding, flow cytometry	–	pH 8	0.06 µM
CC[C@H](C)[C@H](NC(=O)[C@H](Cc1c[nH]c2ccccc12)NC(=O)[C@@H](NC(=O)[C@H](CCC(=O)O)NC(=O)[C@@H]1CCCN1C(=O)[C@H](CCCNC(=N)N)NC(C)=O)[C@@H](C)CC)C(=O)N[C@@H](C)C(=O)N[C@@H](CCC(N)=O)C(=O)N[C@@H](CCC(=O)O)C(=O)N[C@@H](CC(C)C)C(=O)N[C@@H](CCCNC(=N)N)C(=O)N[C@@H](CCCNC(=N)N)C(=O)N[C@@H](C)C(=O)NCC(=O)N[C@@H](CCCCN)C(=O)N[C@H](C(=O)N[C@@H](CC(C)C)C(=O)N[C@@H](CC(N)=O)C(=O)N[C@@H](C)C(=O)N[C@@H](Cc1ccc(O)cc1)C(=O)N[C@@H](Cc1ccc(O)cc1)C(=O)N[C@@H](C)C(=O)N[C@@H](CCCNC(=N)N)C(N)=O)C(C)C	Bcl-2-like protein 2 (BCL2L2, Homo sapiens, UniProt Q92843)	binding, fluorescence polarization	–	pH 7.8, 37 °C	> 1 µM
Cc1ncsc1-c1ccc(C(CO)NC(=O)C2CC(O)CN2C(=O)C(NC(=O)c2ccc(COc3c(-c4c(C)c(F)cc5[nH]ncc45)c(C4CC4)cc4c(N5CC6CC5CN6)nc(OC5CCOCC5)nc34)cc2)C(C)C)cc1 (stereo not shown)	VHL with Elongin B/C	SPR	–	binary	0.113 µM
COc1c(F)c(F)c(C(=O)N[C@H]2[C@@H](O)[C@@H](CO)O[C@@H](S[C@@H]3O[C@H](CO)[C@H](O)[C@H](NC(=O)c4c(F)c(F)c(OC)c(F)c4F)[C@H]3O)[C@@H]2O)c(F)c1F	Galectin-3 (LGALS3, Homo sapiens, UniProt P17931, R144S)	cell-free assay, FP	–	–	1.8 µM

Excerpt of the above:
Structure (SMILES)	target	test	test system	conditions	Kd
CC(C)C1=CC23CCC4C(C)(C(=O)O)CCCC4(C)C2CC1C(C(=O)O)C3C(=O)O (stereo not shown)	Replication protein A 70 kDa DNA-binding subunit (RPA1, Homo sapiens, UniProt P27694)	binding, fluorescence	–	–	29 µM
O=C(O)CCc1ccc(Cl)cc1Cl	PIN8 (Arabidopsis thaliana, UniProt Q9LFP6)	cell-free assay	–	–	21 µM
O=C(N[C@@H](Cn1cncn1)c1ccc(F)cc1F)c1ccc(-c2nnc(-c3ccccc3)o2)cc1	Sterol 14-alpha demethylase (CYP51, Trypanosoma cruzi, UniProt Q7Z1V1)	binding, absorbance	–	–	0.07 µM
